Measurements of several laboratories.
Each line is one published result; not all experiments were run side by side. “And” joins repeats or separate records; there may be more than shown. ± marks the error that the study gave.

`CCN(CC)CCNC(=O)c1c(C)[nH]c(/C=C2\C(=O)Nc3ccc(F)cc32)c1C` has a serum concentration of 38.2 ng/mL (human, serum; 37.5 mg maintenance dose, 24 h post-dose).
`CN(C)C(=O)c1cc2cnc(Nc3ccc(-c4ccc5c(=O)cc(N6CCOCC6)oc5c4)cc3)nc2n1C1CCCC1` has a concentration of 3550 ± 2710 ng/g (BALB/c mouse, liver; oral, 20 mg/kg, 2 h).
For `CC(C)(C(=O)N1CCOc2c(C#N)cncc2C1)C(F)F`, “subjects with adverse event” read 12.5% (item: nervous system disorders; human; oral, 15 mg twice daily, 14 days, multiple ascending dose).
`CN(C(=O)n1cnc(-c2cccnc2)c1)[C@H]1CC[C@H](O)CC1` gave a tissue concentration of 14.7 ± 1.1 ng/g (rat, hippocampus; oral, 10 mg/kg daily for 5 days, 72 h).
The TEAE incidence of `C[C@@H](N)C1CCN(S(=O)(=O)c2cccc3cnccc23)CC1` is reported as 0% (item: Rash; healthy volunteers; 75 mg, fasted).
For `COc1cc2nccc(Oc3ccc(NC(=O)c4cc5c(n(-c6ccccc6)c4=O)CCCC5=O)nc3)c2cc1OC`, “grade ≥3 Hypotension patients” read 15% (relapsed or refractory AML; oral, all dose levels).
`O=C(O)CCC(=O)O.[2H]C([2H])([2H])Oc1cc(C)c2[nH]ccc2c1CN1CC[C@@H](C2CC2)C[C@H]1c1ccc(C(=O)O)cc1` — result for “TEAE sinus bradycardia”: 16.7% (healthy Chinese subjects; 200 mg, single ascending dose).
For `CC1(C)C(/C=C/C2=C(Cl)C(=C/C=C3\N(CCCCCC(=O)O)c4ccccc4C3(C)C)/CCC2)=[N+](CCCCCC(=O)O)c2ccccc21`, the emission maximum was 795 nm (water).
With `O=C(OC(C(F)(F)F)C(F)(F)F)N1CCN(Cc2cccc(Oc3ccccc3)c2)CC1` the Ktrans was 0.0193 min⁻¹ (PET blocking study; rhesus monkey, brain CB; 0.1 mg/kg, compound pretreatment, added: [18F]T-401 tracer).
For `C=CC(=O)Nc1cc(Nc2nccc(-c3cn(C)c4ccccc34)n2)c(OC)cc1N(C)CCN(C)C`, the recovery was 63.2% (storage stability; human plasma; 10 d, on ice, HQC level).
`Cc1cc(NC2CCN(C(=O)OC3CCN(C(=O)/C=C/CN(C)C)C3)CC2)n2ncc(C(C)C)c2n1` (stereo not drawn): “patients with adverse event” 13% (Phase I dose escalation CTCAE v4.0, item: Asthenia; patients with advanced solid tumours; dose not given, all dose schedules any grade).
For `CNC(=O)c1ccc(-c2cnc3ncc(Cc4ccc5ncccc5c4)n3n2)cc1F`, “ALT increased incidence” read 13% (cancer patients; oral, 600 mg twice daily, all grades RP2D expansion).
For `CCc1cc(C(=O)NC)c2nccc(N3CCc4c(cc(Cn5ccnc5)cc4-c4cn(C)nc4C(F)(F)F)C3=O)c2c1`, “body weight change” read 2.4% (Sprague Dawley rat; oral, 100 mg/kg once daily, day 2, 7-day toxicology study; relative to: day 1).
With `Cc1cccc(CNC(=O)c2cn(CCNC(=O)c3ccccc3Sc3c([N+](=O)[O-])ncn3C)c3cc4c(cc3c2=O)OCO4)n1` the remaining compound was 87.9% (cynomolgus monkey, whole blood; 1 µM, 1.5 h).
`O=C(Nc1nc2cccc(-c3ccc(CN4CCS(=O)(=O)CC4)cc3)n2n1)C1CC1`: “treatment-emergent adverse events” 0% (item: food allergy; human rheumatoid arthritis patients; oral, 150 mg once daily, 4 weeks, regardless of relatedness).
For `N#Cc1ccc2c(c1)[C@H]1CCCN(C(=O)c3ccc4[nH]cnc4c3)[C@H]1C2`, “cortisol level change” read -176 nmol/L (human; 10 mg, day 7; relative to: baseline).
Under “total bilirubin change”, `CN(CCC(=O)O)C(=O)c1ccc2c(c1)CC[C@@H]1[C@@H]2CC[C@]2(C)C(c3cncc(F)c3)=CC[C@@H]12` is recorded as 0.45 mg/dL (premenopausal women, endometriosis pain, serum; 60 mg twice daily, visit 5, median; relative to: baseline).
For `FC(F)(F)c1ccc(CNc2ccc(Cc3c[nH]c4ncc(Cl)cc34)cn2)cn1`, “decreased appetite incidence” read 21% (patients with advanced solid tumours; oral, 1000 mg/day, TGCT cohort, all grades).
`Cc1c(-c2ccc(N3CCc4cccc(C(=O)Nc5nc6ccccc6s5)c4C3)nc2C(=O)O)cnn1CC12CC3(C)CC(C)(C1)CC(OCCNCC[C@H](O)CO)(C3)C2`: “mean arterial pressure change” 6 mmHg (beagle dog, male, anaesthetised; intravenous infusion, 0.01 mg/kg/min, 135 min; relative to: baseline).
`CC1(C)C(/C=C/C=C/C=C/C=C2\N(CCCCS(=O)(=O)O)c3ccc4ccccc4c3C2(C)C)=[N+](CCCCS(=O)(=O)[O-])c2ccc3ccccc3c21` has a fluorescence half-life of 38.4 h (solution; 66 µM, room temperature, dark, 800 nm).
Under “mean blood pressure change”, `CCN1/C(=C/C(C)=O)Sc2ccc(F)cc21` is recorded as 98.6 ± 3.2% (cynomolgus monkey; oral, 30 mg/kg, 24 h post-dose; relative to: pre-dose).
`O=S(=O)(O)Oc1cc(O)cc(/C=C/c2ccc(O)cc2)c1` — result for CSF concentration: “not detected” (human, cerebrospinal fluid; dose not given, mean).
Under “fluorescence quantum yield”, `Nc1cccc2ccc(/C=C/C(=O)c3ccc(O)cc3)cc12` is recorded as 54 ± 0.3% (toluene; relative to: coumarin 153 in ethanol).
For `OC[C@H]1OC(O)[C@H](O)[C@@H](O)[C@@H]1O` (stereo partly drawn), the osmolality was 46 mOsmol/kg (aqueous solution; 50 mM, added: glucosamine).
With `CCOCc1nc(O)c(-c2nnc(Cc3ccc(Cl)cn3)o2)c(O)c1-c1c(OC)cccc1OC` the plasma concentration was 0.113 µM (rat, plasma; subcutaneous infusion, 0.192 mg/kg/day, day 7 after surgery).
With `Cn1nc2c(=O)n(C3CC3)cnc2c1[C@](O)(c1cnc(C(F)(F)F)c(Cl)c1)C(F)(F)F` the AUC(0-24 h) was 66.4 µM·h (humanized SCID mice, blood; 10 mg/kg once daily, 6 days, infected).
With `Cn1cc(-c2cn3nccc3c(-c3cnn([C@]4(CC#N)C[C@@H](C#N)C4)c3)n2)cn1` the dose-normalised AUC(0-t) was 35.5 ng·h/mL/mg (healthy humans fasted, plasma; oral, 10 mg single dose, geometric mean).
`COc1ccc2c(c1)CN(C(=O)CCN1CCC(Cc3ccccc3)CC1)CC[S@@+]2[O-]` gave a heart rate of 81 ± 11 beats/min (telemetry; conscious dog; intravenous, 8 mg/kg, 4 h).
`C=CC(=O)NC1CCN(c2ncc3ncnc(Nc4ccc(Oc5ccc6c(c5)ncn6C)c(C)c4)c3n2)CC1` gave a dose-normalised AUC(0-t) of 220 nmol·h/L/mg (healthy male volunteers, plasma; oral, 60 mg, tablet).
With `NC1(C(=O)N[C@@H](CCO)c2ccc(Cl)cc2)CCN(c2nc[nH]c3nccc2-3)CC1` the dose-normalised AUC(0-last) was 2000 ng·h/mL and 3290 ng·h/mL and 1880 ng·h/mL and 3450 ng·h/mL and 4360 ng·h/mL (human, plasma; oral, 480 mg twice daily, added: enzalutamide 160 mg daily).
The logP of `CN(C)CCNS(=O)(=O)c1ccc(N/C=C2\C(=O)Nc3ccccc32)cc1` is reported as 2.67 (octanol/buffer, 40 mM buffer; pH 11).
The Vd/F of `Cn1c(=O)oc2ccc(-c3ccc(C[C@@H](C#N)NC(=O)[C@@H]4CNCCCO4)cc3)cc21` is reported as 359 L (human, moderate renal impairment, plasma; oral, 25 mg single dose, mean).
For `CCCCOC(=O)N1CCN(C(=O)[C@H](CP(=O)(O)O)NC(=O)c2cc(N3CC[C@H](OC)C3)nc(-c3ccccc3)n2)CC1`, “change from baseline” read 0 ± 0.35 mmol/L (item: Potassium; human, blood; 16 mg, 24 h).
`COc1ccc2c3c([nH]c2c1)[C@H](CC(C)C)N1C(=O)[C@H](CC(=O)NC(C)C)NC(=O)[C@@H]1C3` gave a concentration of 40.9 µM (wild-type mouse, male, serum; oral, 100 mg/kg, 2 h).
`Cc1ccc(C(=O)N(CCCN)C(c2nc3snc(C)c3c(=O)n2Cc2ccccc2)C(C)C)cc1` (stereo not drawn) — result for “patients with CTCAE grade ≥3 events”: 33% (human patients; intravenous, 13 mg/day).
The logP of `O=C(CSc1nnc(-c2ccccc2O)n1-c1ccccc1)Nc1cccc(C(=O)O)c1` is reported as -1.65 (octanol/buffer; pH 11).
Under “Irwin test score”, `O=C1NCCc2nc(OCc3cccc(F)c3)ccc21` is recorded as 0 (item: Tremors; Sprague-Dawley rat male; oral, 100 mg/kg, 4 h; direction not given).
With `CCN1CCN(Cc2ccc(Nc3ncc(F)c(-c4cc(F)c5nc6n(c5c4)[C@H](C)CCC6)n3)nc2)CC1` the Vd/F was 2000 L (human, plasma; 100 mg single dose, mean).
`C[C@@H](Oc1ccc(S(C)(=O)=O)cc1C(=O)N1C[C@@H]2C[C@]2(c2cc(C(F)(F)F)on2)C1)C(F)(F)F` has an AUC(0-72 h) of 11 µM·h (elderly humans, plasma; oral, 50 mg single dose, geometric mean).
For `Cc1ccc([C@@H]2O[C@H](CO)[C@@H](O)[C@H](O)[C@H]2O)cc1Cc1ccc(-c2ccc(F)cc2)s1`, “urinary calcium excretion change” read -34.3 mg (Japanese type 2 diabetes patients; 400 mg, day 2, 24 h urine collection; relative to: baseline).
For `CN1CCN(C(=O)CN(C)S(=O)(=O)c2ccc3ccccc3c2)CC1`, the logP was 1.95 (octanol/buffer; pH 11, known kinase inactives set).
`COc1cc(Nc2ncc3c(n2)-c2ccc(Cl)cc2C(c2c(F)cccc2OC)=NC3)ccc1C(=O)O`: “patients with adverse event” 8% (item: Pruritus, grade 2; cancer patients, phase 1/2; oral, dose not given, added: pembrolizumab).
`Nc1ccn([C@@H]2O[C@H](CO)[C@@H](O)C2(F)F)c(=O)n1` — result for dose-normalised AUC(0-6h): “decreased” (human, plasma; dose not given, cycle 1 day 1).
With `CNC(=O)c1ccc(-c2cnc3ncc(Cc4ccc5ncccc5c4)n3n2)cc1F` the AUC(0-inf) was 5310 ng·h/mL (human severe hepatic impairment NCI; oral, 200 mg single dose, mean).
For `CCOc1c([C@H](C)n2nc(C)c3c(N)ncnc32)cc(Cl)c(F)c1[C@@H]1CNC(=O)C1`, “AUC(0-last) geometric mean” read 16.2 µM·h (patients, monotherapy; oral, 45 mg once daily, cycle 1 day 1).
`O=S(=O)(O)Oc1cc([C@H]2Oc3cc(O)cc(O)c3C[C@H]2O)ccc1O` has a CSF concentration of 12.1 nM (human, cerebrospinal fluid; concentration not given, mean).
The logP of `Cc1nc(C)c(-c2ccnc(Nc3cccc([N+](=O)[O-])c3)n2)s1` is reported as 4.06 (octanol/buffer, 40 mM buffer; pH 11).
`CN(CCC(=O)O)C(=O)c1ccc2c(c1)CC[C@@H]1[C@@H]2CC[C@]2(C)C(c3cncc(F)c3)=CC[C@@H]12` gave a Tmax of 2.02 h (postmenopausal women, plasma; 60 mg, single dose, median).
`CC(C)C[C@H](NC(=O)[C@@H](Cc1c[nH]c2ccccc12)NC(=O)[C@H](Cc1ccc(O)cc1)NC(=O)[C@H](CO)NC(=O)[C@H](Cc1c[nH]c2ccccc12)NC(=O)[C@H](Cc1c[nH]cn1)NC(=O)[C@@H]1CCC(=O)N1)C(=O)N[C@@H](CCCNC(=N)N)C(=O)N1CCC[C@H]1C(=O)NCC(N)=O` — result for “patients, drug-related Dermatitis TEAEs”: 25% (Chinese CPP boys; intramuscular, 22.5 mg, 12 months, day 1, month 6).
With `CCCOc1ccc([C@H]2CNC(=O)N2c2ccc3[nH]cnc3c2)cc1` the CSF concentration was 24.7 ng/mL (human, elderly, fasted, cerebrospinal fluid; oral, 300 mg twice daily, capsule, 6 h after final dose, day 7, geometric mean).
`Cc1cc(NC(=O)c2cccc(NC(=O)/C=C/CN(C)C)c2)ccc1Nc1nccc(-c2cccnc2)n1` gave a compound remaining of 33.5% (metabolic stability; Wistar rat, male, primary hepatocytes; 1 µM, 180 min).
`CCn1c(SCC(=O)Nc2ccccc2OC)nnc1-c1ccco1` has a logP of 2.44 (octanol/buffer; pH 11).
`Cc1cc(Nc2ccc(S(F)(F)(F)(F)F)cc2)n2nc(C(C)(F)F)nc2n1`: “adverse event sinus bradycardia” 0% (Plasmodium vivax malaria patients; oral, 800 mg).
With `CS(=O)(=O)N(CC(=O)Nc1ccccc1C(=O)N1CCOCC1)c1ccc(Cl)cc1` the logP was 1.77 (octanol/buffer; pH 11, known kinase inactives set).
`COc1ncc(-c2nc3c(n2C(C)C)[C@H](c2ccc(Cl)cc2)N(c2cc(Cl)cn(C)c2=O)C3=O)c(OC)n1` gave a median half-life of 23.1 h (human patients, plasma; oral, 200 mg, high-dose arm, cycle 2 day 1).
The logP of `COc1cccc(NC(=O)CSc2nnnn2C)c1` is reported as 1.48 (octanol/buffer; pH 11, known kinase inactives set).
The treatment-related vomiting of `C=CCN1CC(=O)N2[C@@H](Cc3ccc(O)cc3F)C(=O)N(Cc3cccc(N4CC(N5CCN(CC)CC5)C4)n3)C[C@@H]2N1C(=O)NCc1ccccc1` is reported as 0% (advanced solid tumour patients; oral, 15 mg twice daily, grade ≥3, dose-escalation).
